{"data": "Measurements from different studies", "JAK2 JH1": "Tyrosine-protein kinase JAK2, JH1 (JAK2, Homo sapiens, UniProt O60674)", "JAK2": "Tyrosine-protein kinase JAK2 (JAK2, Homo sapiens, UniProt O60674)", "note": "Values joined by “and” are separate records of one study, mostly repeats; a detail may differ."}
{"SMILES": "Cc1ccc(-c2c(/C=C(\\C#N)C(=O)NC(C)C)n(CCCO)c3ncnc(N)c23)cc1", "target": "JAK2 JH1", "assay": "cell-free assay, competition with immobilised ligand", "conditions": "1 µM", "endpoint": "remaining binding", "result": "85%"}
{"SMILES": "Cc1cnc(Nc2ccc3c(c2)CCN(C(=O)/C=C/C(=O)C(C)C)C3)nc1-c1cnn(C(C)C)c1", "target": "JAK2", "assay": "ADP-Glo kinase", "scale": "relative to: IC50 JAK3 over IC50 JAK2", "endpoint": "selectivity ratio", "result": "> 2.53"}
{"SMILES": "CCN1CCN(Cc2ccc(C(=O)Nc3ccc(C)c(NCc4cnc5[nH]ccc5c4OC)c3)cc2C(F)(F)F)CC1", "target": "JAK2 JH1", "assay": "binding, competition with immobilised ligand", "conditions": "1 µM", "endpoint": "remaining binding", "result": "58%"}
{"SMILES": "COc1c(Cl)cccc1Nc1c(-c2ccncc2C#C[C@@]2(C)CCCN2C(=O)/C=C/CN(C)C)[nH]c2c1C(=O)NCC2", "target": "JAK2 JH1", "assay": "cell-free assay, competition with immobilised ligand", "conditions": "3 µM", "endpoint": "remaining binding", "result": "97%"}
{"SMILES": "Cc1cnc2nc1Nc1cccc(c1)COC/C=C/COCc1cc(ccc1OCCN1CCOCC1)N2", "target": "JAK2", "assay": "inhibitor, Z'-LYTE kinase", "conditions": "250 nM", "endpoint": "inhibition", "result": "100% and 102%"}
{"SMILES": "CNC1C[S+]2CC[S+]3CC[S+](C1)[Ru-4]321([N]=C=S)[n]2c3ccc(OC)cc3c3c4c(c5cc(F)c[n+]1c5c32)C(=O)NC4=O (stereo not shown)", "target": "JAK2", "assay": "KinomeScan", "conditions": "0.1 µM", "scale": "relative to: untreated", "endpoint": "remaining binding", "result": "88%"}
{"SMILES": "CCC(CC)C(=O)/C=C/C(=O)N1CCc2cc(Nc3ncc(C)c(-c4cnn(C(C)C)c4)n3)ccc2C1", "target": "JAK2", "assay": "ADP-Glo kinase", "scale": "relative to: IC50 JAK1 over IC50 JAK2", "endpoint": "selectivity ratio", "result": 0.53}
{"SMILES": "COc1ccc(NC(=O)Nc2ccc3c(c2)C(=O)N(C(C)CO)CC(C)C(CN(C)Cc2ccc4c(c2)OCO4)O3)cc1 (stereo not shown)", "target": "JAK2 JH1", "assay": "binding, competition with immobilised ligand", "conditions": "10 µM", "endpoint": "remaining binding", "result": "98%"}
{"SMILES": "Cc1cnc(Nc2ccc3c(c2)CCN(C(=O)/C=C/C(=O)C2CCC(C)CC2)C3)nc1-c1cnn(C(C)C)c1 (stereo not shown)", "target": "JAK2", "assay": "ADP-Glo kinase", "scale": "relative to: IC50 JAK3 over IC50 JAK2", "endpoint": "selectivity ratio", "result": "> 14.6"}
{"SMILES": "Cc1ccc(-c2n[nH]cc2CNC(=O)C2(C#N)CC2)cc1", "target": "JAK2", "assay": "cell-free assay, competition with immobilised ligand", "conditions": "10 µM", "endpoint": "remaining binding", "result": "1.4%"}
{"SMILES": "C=CC(=O)N1CCc2ccc(-n3c(=O)ccc4cnc5ccc(-c6cnn(C)c6)cc5c43)cc21", "target": "JAK2", "assay": "KINOMEscan", "conditions": "1 µM", "scale": "relative to: DMSO control", "endpoint": "remaining binding", "result": "100%"}
{"SMILES": "Cc1cnc2nc1Nc1cc(F)cc(c1)COC/C=C/COCc1cc(ccc1OCCN1CCCC1)N2", "target": "JAK2", "assay": "inhibitor, Z'-LYTE kinase", "conditions": "12.35 nM", "endpoint": "inhibition", "result": "71.2% and 70% and 72.6%"}
{"SMILES": "COCC12C(=O)NC3C4(C(OC)CC1O)C1CC5(O)C(OC)C(O)C(OC(C)=O)(C1C5OC(=O)c1ccccc1)C3(O)C(OC)C24 (stereo not shown)", "target": "JAK2", "assay": "kinase activity, inhibitor, ProQinase kinase profiling", "conditions": "25 µM", "scale": "relative to: control", "endpoint": "remaining activity", "result": "101% and 99%"}
{"SMILES": "Cc1cnc(Nc2ccc3c(c2)CCN(C(=O)/C=C/C(=O)C2CCCC2)C3)nc1-c1cnn(C(C)C)c1", "target": "JAK2", "assay": "ADP-Glo kinase", "scale": "relative to: IC50 JAK3 over IC50 JAK2", "endpoint": "selectivity ratio", "result": "> 4.47"}
{"SMILES": "Cc1c[nH]c2nccc(-c3ccc(C(=O)N[C@@H]4c5c(F)cc(C(F)F)cc5C[C@@H]4O)cn3)c12", "target": "JAK2 JH1", "assay": "binding, competition with immobilised ligand", "conditions": "3 µM", "endpoint": "remaining binding", "result": "0.7%"}
{"SMILES": "Cc1cnc2nc1Nc1cccc(c1)COCc1cc(ccc1OCCN1CCOCC1)N2", "target": "JAK2", "assay": "inhibitor, Z'-LYTE kinase", "conditions": "0.05081 nM", "endpoint": "inhibition", "result": "6.3% and -1.72% and -0.166%"}
{"SMILES": "CN1CCN(Cc2ccc(NC(=O)c3cccc(C#Cc4cnc(N)c5ncccc45)c3)cc2C(F)(F)F)CC1", "target": "JAK2 JH1", "assay": "cell-free assay, competition with immobilised ligand", "conditions": "0.5 µM", "endpoint": "remaining binding", "result": "3.6%"}
{"SMILES": "C=CC(=O)N1CCCC(n2c(=O)c3ncccc3n(Cc3ccc(Oc4ccccc4)cc3)c2=O)C1 (stereo not shown)", "target": "JAK2 JH1", "assay": "cell-free assay, competition with immobilised ligand", "conditions": "1 µM", "endpoint": "remaining binding", "result": "73%"}
{"SMILES": "Cc1cnc(Nc2ccc3c(c2)CCN(C(=O)/C=C/CC(C)C)C3)nc1-c1cnn(C(C)C)c1", "target": "JAK2", "assay": "ADP-Glo kinase", "scale": "relative to: IC50 JAK3 over IC50 JAK2", "endpoint": "selectivity ratio", "result": "> 2.16"}
{"SMILES": "Nc1ncc2c(n1)-c1c([nH]c3ccc(C4=CCOCC4)cc13)CCC2", "target": "JAK2 JH1", "assay": "binding, competition with immobilised ligand", "conditions": "1 µM", "endpoint": "remaining binding", "result": "42%"}
{"SMILES": "Cc1cnc(Nc2ccc3c(c2)CCN(C(=O)/C=C/C(=O)c2ccc(Cl)cc2)C3)nc1-c1cnn(C(C)C)c1", "target": "JAK2", "assay": "ADP-Glo", "scale": "relative to: IC50 JAK1 over IC50 JAK2", "endpoint": "selectivity ratio", "result": "> 73.2"}
{"SMILES": "Cc1cnc2nc1Nc1cccc(c1)COCCCCOCc1cc(ccc1OCCN1CCCC1)N2", "target": "JAK2", "assay": "inhibitor, Z'-LYTE kinase", "conditions": "4.572 nM", "endpoint": "inhibition", "result": "0.92% and -2.2% and -3.73%"}
{"note": "Repeated from above:"}
{"SMILES": "C=CC(=O)N1CCc2ccc(-n3c(=O)ccc4cnc5ccc(-c6cnn(C)c6)cc5c43)cc21", "target": "JAK2", "assay": "KINOMEscan", "conditions": "1 µM", "scale": "relative to: DMSO control", "endpoint": "remaining binding", "result": "100%"}
{"SMILES": "Nc1ncc2c(n1)-c1c([nH]c3ccc(C4=CCOCC4)cc13)CCC2", "target": "JAK2 JH1", "assay": "binding, competition with immobilised ligand", "conditions": "1 µM", "endpoint": "remaining binding", "result": "42%"}
{"SMILES": "Cc1cnc(Nc2ccc3c(c2)CCN(C(=O)/C=C/C(=O)C(C)C)C3)nc1-c1cnn(C(C)C)c1", "target": "JAK2", "assay": "ADP-Glo kinase", "scale": "relative to: IC50 JAK3 over IC50 JAK2", "endpoint": "selectivity ratio", "result": "> 2.53"}
